Experimental data collected from several papers.
Compare with care: the assays were run in different laboratories. “And” joins repeats or separate records; there may be more than shown. Numbers after ± are the reported error.

`COc1ccc2c(c1)CC[C@@H]1[C@@H]2CC[C@]2(C)[C@@H](NCCCCCCN3C(=O)C=CC3=O)CC[C@@H]12` has an inhibition of 18% (calcium response, plateau; N2a, mouse; 1 µM, together with: BzATP 300 µM).
Under “pseudo-first-order rate constant”, `O=S(=O)(F)Oc1cc(C(F)(F)F)cc(C(F)(F)F)c1` is recorded as 1.4 h⁻¹ (HPLC-MS; pH 10.2, together with: 50 mM N-α-acetyl-lysine).
The indeterminate response of `[131I-].[Na+]` is reported as 16.5% (ATA response criteria; human, papillary thyroid cancer, distant metastases; 3700 MBq).
For `O=S(=O)([O-])C(F)(F)C(F)(F)C(F)(F)C(F)(F)C(F)(F)C(F)(F)C(F)(F)C(F)(F)F.[K+]`, protein expression read “increased” (Western blot, measured: Cyp4a10; pair-fed mice, liver; dose not given).
The steatosis area of `C[C@H]1O[C@@H](O[C@H]2CC[C@@]3(C)[C@@H](CC[C@]4(C)[C@@H]3C=C[C@]35OC[C@@]6(CCC(C)(C)C[C@H]63)[C@@H](O)C[C@]54C)[C@]2(C)CO)[C@H](O)[C@@H](O[C@@H]2O[C@H](CO)[C@@H](O)[C@H](O)[C@H]2O)[C@H]1O` is reported as 5.51% and 5.79% and 4.59% and 5.2% and 4.78% and 7.24% and 5.08% (H&E staining; AAV8-null control mice, no ethanol, liver; dose not given, high dose).
`C=CCNc1c(O)cc2c(O)c1C[C@@H](C)C[C@H](OC)[C@H](O)[C@@H](C)/C=C(\C)[C@H](OC(N)=O)[C@@H](OC)/C=C\C=C(/C)C(=O)N2` — result for “patients with stable disease”: 59% (RECIST v1.0; human soft tissue sarcoma; concentration not given, stable at least 6 weeks).
The IC50 of `CC(C)=CCC/C(C)=C/C(=O)O` is reported as over 1000 µM (pH gradient; Escherichia coli inverted membrane vesicles).
`CNC(=O)c1c(C)oc2cc(Oc3ccnc4cc(OCCN5CCOCC5)ccc34)ccc12`: “disease control rate” 64% (response or stable disease ≥4 cycles, RECIST 1.0; patients with advanced solid tumours; dose not given, twice daily dosing).
Under fEPSP slope, `CC(C)(C)CC(C)(C)c1ccc(OCCOCC[N+](C)(C)Cc2ccccc2)cc1` is recorded as “increased” (C57BL/6J mouse, male, hippocampal slices, Schaffer collateral-CA1; 300 nM, 60 min; relative to: vehicle).
`Cc1nc(Nc2ccc(CC(=O)O)cc2)nc(Nc2ccc(F)c(C(F)(F)F)c2)c1C`: mRNA level “no effect” (measured: FASN; C57BL/6J mice, high-fat diet, liver; intraperitoneal, 0.3 mg/kg daily, 60% fat diet 12 weeks, dosed last four; relative to: vehicle).
For `CC[C@H](C)[C@@H]1NC(=O)[C@@H]2CCCN2C(=O)[C@H](CC(C)C)NC(=O)[C@H](CC(C)C)NC(=O)CNC(=O)[C@@H](NC(=O)[C@@H](NC(=O)[C@H](CC(=O)O)NC(=O)CNC(=O)[C@@H](NC(=O)[C@H](C)NC(=O)CNC(=O)[C@H](CCCCN)NC(=O)[C@H](CC(C)C)NC(=O)[C@H](CC(C)C)NC(=O)[C@H](CCCCN)NC(=O)CNC(=O)[C@@H](NC(=O)[C@@H](N)CC(C)C)C(C)C)C(C)C)C(C)C)CSSC[C@@H](C(=O)O)NC1=O`, “log2 fold change” read -1.8 (RNA-seq, measured: novel.411 mRNA; mouse traumatic brain injury, frontal cortex and hippocampus; dose not given; relative to: TBI plus compound vs TBI).
`C[C@H]1O[C@H](O[C@H]2CC[C@H](n3ccc(NC(=O)c4ccc(NC(=O)[C@@](C)(N)CO)cc4)nc3=O)O[C@@H]2C)[C@H](O)[C@@H](O)[C@@H]1N(C)C` has an IC50 of 20.3 ± 5.16 µM (translation; rabbit reticulocyte lysate).
The normalised absorbance of `NNc1ccccc1` is reported as 0.92 (hydrazine ligation kinetics, absorbance; concentration not given, 50 s, together with: 2-formylphenylboronic acid).
`FC(F)(F)c1ccc2c(c1)[C@@H]1CNC[C@H]2C1` has an ethanol intake of 6 ± 0.4 g/kg (two-bottle choice; Wistar rat, intermittent 20% ethanol access; subcutaneous, 1 mg/kg, 24 h).
Under “ADAS-Cog maze time change”, `Cc1cn(-c2cc(NC(=O)c3ccc(C)c(Nc4nccc(-c5cccnc5)n4)c3)cc(C(F)(F)F)c2)cn1` is recorded as 4.7 (human patients; dose not given, 6 months vs baseline, unit not given; relative to: placebo).
For `CC[C@@H](C)[C@@H](NC(=O)[C@@H](Cc1ccc(O)cc1)NC(=O)[C@H]1CCCN1C(=O)[C@@H](CCCNC(=N)N)NC(=O)[C@H](N)Cc1c[nH]cn1)C(=O)N[C@H](C)C(=O)N[C@H](Cc1c[nH]cn1)C(=O)N[C@H](CCCNC(=N)N)C(=O)N[C@H](CCCCNC(=O)c1cccc(S(=O)(=O)F)c1)C(=O)N[C@H](Cc1ccc(O)cc1)C(=O)N[C@H](CO)C(=O)N[C@H](Cc1ccccc1)C(N)=O`, “IFN-γ+ CD8+ T cell frequency” read 5.87% and 6.61% and 7.7% and 5.66% and 7.16% (ex vivo flow cytometry; B16 tumour-bearing mice, spleen; dose not given).
For `CCCCC1CNC2CCc3ccc(OC)cc3C12.Cl` (racemic), “trials to criterion” read “decreased” (memory retention, foot-shock T-maze avoidance; SAMP8 mice; intraperitoneal, 1.0 mg/kg daily; relative to: vehicle).
For `Clc1cc2c(cc1Cl)Oc1cc(Cl)c(Cl)cc1O2`, “mRNA fold change” read 1.8 fold (RNA-Seq, measured: Ptger3; Sprague-Dawley rat, female, liver; 10 µg/kg; relative to: vehicle).
`CCCCC1(CCCC)CN(c2ccccc2)c2cc(SC)c(OCC(=O)N[C@@H](C(=O)NCC(=O)O)c3ccccc3)cc2S(=O)(=O)C1` has a serum LDL-C of 89.3 mg/dL (measured: LDL cholesterol; human, serum; 10 mg once daily, day 14).
`C[C@]1(CO)Cc2ncn(-c3ccc(C#N)c(Cl)c3)c2C(=O)O1` has a urinary excretion of 73 mmol (aldosterone synthesis, inhibitor, measured: cortisol; healthy Japanese adults, urine; 3 mg, 0-24 h after first dose, multiple rising dose).
`CN1CCN(S(=O)(=O)c2cc([N+](=O)[O-])ccc2N(CCOS(C)(=O)=O)CCOS(C)(=O)=O)CC1`: “EFS delay (T-C)” 32.3 days (NSG mice, sample BC PDX; intraperitoneal, 25 mg/kg weekly x3; relative to: vehicle).
